# Experimental data from different studies.
# Every numbered part comes from another study and shows a few of its results, in no order.
# UniProt P42336, sequence (whole entry, unmodified, looked up): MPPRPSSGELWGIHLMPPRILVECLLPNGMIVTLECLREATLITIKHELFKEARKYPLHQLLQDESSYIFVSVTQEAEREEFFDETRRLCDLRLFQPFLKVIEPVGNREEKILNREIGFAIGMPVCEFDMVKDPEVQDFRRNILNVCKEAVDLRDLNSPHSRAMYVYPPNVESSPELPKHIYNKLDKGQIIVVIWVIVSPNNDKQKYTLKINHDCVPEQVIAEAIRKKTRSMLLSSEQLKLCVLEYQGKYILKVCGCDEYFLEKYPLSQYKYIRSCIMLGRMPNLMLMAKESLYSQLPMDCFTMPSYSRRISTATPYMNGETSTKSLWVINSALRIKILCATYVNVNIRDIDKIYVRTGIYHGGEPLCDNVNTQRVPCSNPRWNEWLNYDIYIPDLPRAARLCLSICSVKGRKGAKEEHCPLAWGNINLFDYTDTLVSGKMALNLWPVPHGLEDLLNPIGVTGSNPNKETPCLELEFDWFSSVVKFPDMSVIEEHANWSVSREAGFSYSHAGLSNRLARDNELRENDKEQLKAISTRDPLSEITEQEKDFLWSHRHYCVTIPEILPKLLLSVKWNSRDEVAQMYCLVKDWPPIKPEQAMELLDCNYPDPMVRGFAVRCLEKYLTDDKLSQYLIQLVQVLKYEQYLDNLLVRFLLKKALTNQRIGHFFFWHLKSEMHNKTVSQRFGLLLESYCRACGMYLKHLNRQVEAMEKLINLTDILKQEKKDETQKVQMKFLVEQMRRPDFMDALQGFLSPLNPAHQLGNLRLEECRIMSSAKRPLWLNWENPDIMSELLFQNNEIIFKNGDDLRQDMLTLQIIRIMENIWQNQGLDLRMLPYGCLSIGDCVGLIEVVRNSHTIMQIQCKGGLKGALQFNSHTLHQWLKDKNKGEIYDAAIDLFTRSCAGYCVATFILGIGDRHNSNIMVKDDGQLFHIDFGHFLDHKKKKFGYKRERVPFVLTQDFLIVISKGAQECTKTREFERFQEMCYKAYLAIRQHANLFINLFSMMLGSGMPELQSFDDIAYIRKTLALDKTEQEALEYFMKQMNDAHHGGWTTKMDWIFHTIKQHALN
# UniProt Q13705, sequence (whole entry, looked up): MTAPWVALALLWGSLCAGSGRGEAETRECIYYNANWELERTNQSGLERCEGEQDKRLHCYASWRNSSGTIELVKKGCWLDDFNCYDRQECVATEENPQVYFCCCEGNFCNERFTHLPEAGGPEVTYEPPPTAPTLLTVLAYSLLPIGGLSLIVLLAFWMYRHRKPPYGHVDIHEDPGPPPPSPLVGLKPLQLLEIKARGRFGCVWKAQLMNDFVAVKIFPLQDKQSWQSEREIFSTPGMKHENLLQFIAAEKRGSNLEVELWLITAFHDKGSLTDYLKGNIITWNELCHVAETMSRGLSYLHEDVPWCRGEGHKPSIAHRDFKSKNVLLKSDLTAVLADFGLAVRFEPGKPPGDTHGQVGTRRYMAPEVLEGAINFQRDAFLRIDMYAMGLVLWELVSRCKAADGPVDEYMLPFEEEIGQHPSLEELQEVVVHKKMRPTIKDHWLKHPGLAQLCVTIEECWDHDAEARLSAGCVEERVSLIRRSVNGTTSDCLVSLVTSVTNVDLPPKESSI
# UniProt Q8TDR2, sequence (whole entry, looked up): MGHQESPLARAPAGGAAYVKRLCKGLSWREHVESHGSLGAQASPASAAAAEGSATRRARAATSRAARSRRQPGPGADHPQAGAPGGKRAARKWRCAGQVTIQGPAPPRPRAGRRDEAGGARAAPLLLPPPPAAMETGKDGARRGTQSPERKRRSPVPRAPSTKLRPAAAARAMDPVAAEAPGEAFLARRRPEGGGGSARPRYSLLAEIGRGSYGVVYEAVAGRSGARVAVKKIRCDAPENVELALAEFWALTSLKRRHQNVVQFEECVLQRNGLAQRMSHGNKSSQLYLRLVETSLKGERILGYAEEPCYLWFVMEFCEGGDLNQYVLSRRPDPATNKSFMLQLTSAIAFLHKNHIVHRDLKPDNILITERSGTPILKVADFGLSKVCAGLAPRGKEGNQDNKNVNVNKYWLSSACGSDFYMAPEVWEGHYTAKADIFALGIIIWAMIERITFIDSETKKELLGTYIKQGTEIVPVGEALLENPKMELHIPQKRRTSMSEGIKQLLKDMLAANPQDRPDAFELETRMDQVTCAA
# UniProt Q9Y6E0, sequence (whole entry, looked up): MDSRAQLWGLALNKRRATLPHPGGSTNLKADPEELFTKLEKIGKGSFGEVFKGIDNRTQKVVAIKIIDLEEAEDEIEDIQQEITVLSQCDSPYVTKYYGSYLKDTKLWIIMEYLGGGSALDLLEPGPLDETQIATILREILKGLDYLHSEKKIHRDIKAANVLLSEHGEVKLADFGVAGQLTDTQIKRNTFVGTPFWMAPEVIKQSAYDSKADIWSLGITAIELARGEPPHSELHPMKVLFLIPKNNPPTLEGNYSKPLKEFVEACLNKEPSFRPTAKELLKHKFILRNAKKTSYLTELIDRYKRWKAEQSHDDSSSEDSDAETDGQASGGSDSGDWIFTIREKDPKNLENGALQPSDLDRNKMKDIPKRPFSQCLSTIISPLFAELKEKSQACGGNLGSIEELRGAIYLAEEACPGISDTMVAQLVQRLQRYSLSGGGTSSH
# UniProt P50750, sequence (whole entry, looked up): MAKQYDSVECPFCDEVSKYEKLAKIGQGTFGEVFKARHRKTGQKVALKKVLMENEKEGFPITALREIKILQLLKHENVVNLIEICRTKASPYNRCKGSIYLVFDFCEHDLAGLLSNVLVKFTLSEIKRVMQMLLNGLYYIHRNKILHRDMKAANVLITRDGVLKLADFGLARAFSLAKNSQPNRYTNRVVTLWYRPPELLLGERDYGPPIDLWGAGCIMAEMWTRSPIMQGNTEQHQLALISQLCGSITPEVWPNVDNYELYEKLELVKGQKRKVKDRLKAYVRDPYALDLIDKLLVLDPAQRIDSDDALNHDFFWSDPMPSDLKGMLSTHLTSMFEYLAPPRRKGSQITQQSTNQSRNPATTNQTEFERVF
# UniProt Q92918, sequence (whole entry, looked up): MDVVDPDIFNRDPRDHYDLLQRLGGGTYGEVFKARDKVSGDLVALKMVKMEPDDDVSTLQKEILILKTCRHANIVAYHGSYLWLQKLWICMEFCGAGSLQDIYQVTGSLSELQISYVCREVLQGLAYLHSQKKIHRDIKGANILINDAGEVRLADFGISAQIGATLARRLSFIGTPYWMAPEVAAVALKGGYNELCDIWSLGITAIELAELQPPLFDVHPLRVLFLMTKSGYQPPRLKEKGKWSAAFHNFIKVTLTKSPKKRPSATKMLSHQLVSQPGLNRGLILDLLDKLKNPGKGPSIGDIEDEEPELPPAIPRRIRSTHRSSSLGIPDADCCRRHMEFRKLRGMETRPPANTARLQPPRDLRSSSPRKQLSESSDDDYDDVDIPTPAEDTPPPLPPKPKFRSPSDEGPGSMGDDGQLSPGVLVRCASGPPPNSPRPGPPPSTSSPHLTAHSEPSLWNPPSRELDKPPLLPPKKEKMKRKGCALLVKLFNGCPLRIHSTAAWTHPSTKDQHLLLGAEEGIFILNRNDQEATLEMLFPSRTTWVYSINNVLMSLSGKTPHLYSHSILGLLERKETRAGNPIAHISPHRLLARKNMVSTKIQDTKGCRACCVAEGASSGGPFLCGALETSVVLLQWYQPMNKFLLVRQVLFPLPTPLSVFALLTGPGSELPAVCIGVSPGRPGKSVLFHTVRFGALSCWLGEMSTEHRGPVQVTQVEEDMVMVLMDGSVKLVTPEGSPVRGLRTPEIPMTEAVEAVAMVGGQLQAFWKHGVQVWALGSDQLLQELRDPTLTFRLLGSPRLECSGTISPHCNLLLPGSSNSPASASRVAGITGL
# UniProt Q9UIK4, sequence (whole entry, looked up): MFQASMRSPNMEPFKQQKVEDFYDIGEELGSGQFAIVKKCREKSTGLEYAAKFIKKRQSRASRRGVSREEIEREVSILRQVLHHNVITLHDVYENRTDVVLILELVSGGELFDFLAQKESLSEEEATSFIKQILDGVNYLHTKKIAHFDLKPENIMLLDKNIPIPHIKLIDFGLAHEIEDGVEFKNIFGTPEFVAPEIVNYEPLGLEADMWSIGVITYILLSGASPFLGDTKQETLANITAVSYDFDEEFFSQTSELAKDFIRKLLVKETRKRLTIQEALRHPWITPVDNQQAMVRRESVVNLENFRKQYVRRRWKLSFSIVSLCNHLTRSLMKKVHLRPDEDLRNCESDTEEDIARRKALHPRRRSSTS

# Sample 1 — technique: protein-binding microarray; form: hairpin DNA; medium: in vitro; tested at: not given; reference: not given; reading: higher = stronger binding
# Target: Runt-related transcription factor 3, Runt domain (RUNX3, Homo sapiens, UniProt Q13761, residues 53-186)
# UniProt Q13761, sequence (53-186, looked up): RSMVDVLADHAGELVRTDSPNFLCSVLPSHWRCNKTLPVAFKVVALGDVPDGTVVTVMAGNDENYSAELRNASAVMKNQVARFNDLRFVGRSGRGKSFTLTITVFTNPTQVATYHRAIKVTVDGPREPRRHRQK
# Notes: whole hairpin DNA, median over replicate spots
Oligonucleotide,median fluorescence [a.u.]
GAGGCCTGTCGCGGTTGGCCTCCTGGCCAACCGCGACAGGCCTCACACTC (5mC at 32),5610
GAGGCCTGCGGCGGTTGGCCTCCTGGCCAACCGCCGCAGGCCTCACACTC (5mC at 35),5920
GAGGCCTGTCGCCGTTGGCCTCCTGGCCAACGGCGACAGGCCTCACACTC (5mC at 31),5080
GAGGCCTGTTGCGGCGGGCCTCCTGGCCCGCCGCAACAGGCCTCACACTC (5mC at 15 29),7250
GAGGCCGGTCGCGGTTGGCCTCCTGGCCAACCGCGACCGGCCTCACACTC (5mC at 38),5860
GAGGCCTCGTGTGGTTGGCCTCCTGGCCAACCACACGAGGCCTCACACTC (5mC at 36),5120
GAGGCCTGTTGTGGTTGGCCTCCTGGCCAACCACAACAGGCCTCACACTC (5mC at 31),4350
GAGGCCTGTCGCGGTTGGCCTCCTGGCCAACCGCGACAGGCCTCACACTC (5mC at 31),5200

# Sample 2 — species: mouse; medium: microsomes or S9; tested at: 2 µM; time: 0.5 h
Structure (SMILES),remaining compound
Cc1cc(C(=O)Nc2cnn(Cc3ccc(Cl)cc3Cl)c2)c2c(C)nn(C)c2n1,42.6%
O=S(=O)(NCC(c1ccco1)S(=O)(=O)c1ccccc1)c1ccc(Oc2ccccc2)cc1 (stereo not shown),0.387%
CN(C(=O)CN1C(=O)COc2cc(Cl)c(Cl)cc21)C(CN1CCCC1)c1ccc(-c2ccnc(Cl)c2)cc1 (stereo not shown),> 100%

# Sample 3 — mode: antagonist
# Target: Beta-1 adrenergic receptor (ADRB1, Homo sapiens, UniProt P08588)
# UniProt P08588, sequence (whole entry, looked up): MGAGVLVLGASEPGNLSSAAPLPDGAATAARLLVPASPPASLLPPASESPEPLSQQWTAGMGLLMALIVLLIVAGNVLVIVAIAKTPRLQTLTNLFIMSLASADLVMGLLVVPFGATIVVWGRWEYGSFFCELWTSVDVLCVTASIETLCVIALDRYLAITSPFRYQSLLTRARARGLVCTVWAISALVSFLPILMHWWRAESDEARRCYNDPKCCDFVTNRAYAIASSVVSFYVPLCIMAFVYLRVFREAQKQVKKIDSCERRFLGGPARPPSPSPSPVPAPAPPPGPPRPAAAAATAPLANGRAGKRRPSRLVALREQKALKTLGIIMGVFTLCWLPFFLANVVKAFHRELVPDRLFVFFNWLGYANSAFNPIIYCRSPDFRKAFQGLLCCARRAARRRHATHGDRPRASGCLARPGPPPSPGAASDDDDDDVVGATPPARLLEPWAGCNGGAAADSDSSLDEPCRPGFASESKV
Structure (SMILES),IC50 [µM]
O=C(NCCc1ccccn1)c1ccnc(-c2nnc3ccc(N4CCOCC4)nn23)c1,≥ 100
C/C=C(/C)c1c(Cl)c(O)c(C)c2c1Oc1c(Cl)c(O)c(Cl)c(C)c1C(=O)O2,≥ 100
OC(COc1ccccc1)CN1CCN(Cc2cnc3ccccc3c2)CC1 (stereo not shown),≥ 100
Cc1cccc2nc(C(=O)N3CCN(c4cccc(Cl)c4)CC3)cn12,≥ 100

# Sample 4 — organism: Sarcocystis neurona; observed: parasite growth; tested at: 10 µM; time: 96 h; notes: first screen
Compound,inhibition [%]
CNCCCN1c2ccccc2CCc2ccccc21,-1.7
C[C@H]1COc2c(C3(N)CC3)c(F)cc3c(=O)c(C(=O)O)cn1c23,2.1
Cc1occc(=O)c1O,-10.2

# Sample 5 — observed: cell-free assay; technique: competition with immobilised ligand; tested at: 1 µM
# Compound: CC(=O)Nc1c(C(C)=O)c(=O)n(C)c2nc(-c3ccc(Cl)cc3Cl)c(-c3ccc(Cl)cc3)cc12
target,remaining binding
"Ephrin type-B receptor 3 (EPHB3, Homo sapiens, UniProt P54753)",100%
"Protein-tyrosine kinase 6 (PTK6, Homo sapiens, UniProt Q13882)",100%
"Serine/threonine-protein kinase 17B (STK17B, Homo sapiens, UniProt O94768)",100%
"Cyclin-dependent kinase 4 (CDK4, Homo sapiens, UniProt P11802)",87%
"Serine/threonine-protein kinase 24 (STK24, Homo sapiens, UniProt Q9Y6E0)",100%
"Serine/threonine-protein kinase 35 (STK35, Homo sapiens, UniProt Q8TDR2)",100%
"Activin receptor type-2B (ACVR2B, Homo sapiens, UniProt Q13705)",100%
"Mitogen-activated protein kinase 4 (MAPK4, Homo sapiens, UniProt P31152)",79%
"Death-associated protein kinase 2 (DAPK2, Homo sapiens, UniProt Q9UIK4)",100%
"Cyclin-dependent kinase 5 (CDK5, Homo sapiens, UniProt Q00535)",100%
"cAMP-dependent protein kinase catalytic subunit beta (PRKACB, Homo sapiens, UniProt P22694)",100%
"Cyclin-dependent kinase 9 (CDK9, Homo sapiens, UniProt P50750)",100%
"Mitogen-activated protein kinase kinase kinase kinase 1 (MAP4K1, Homo sapiens, UniProt Q92918)",91%
"Phosphatidylinositol 4,5-bisphosphate 3-kinase catalytic subunit alpha isoform (PIK3CA, Homo sapiens, UniProt P42336, E545K)",79%
"Leucine-rich repeat serine/threonine-protein kinase 2 (LRRK2, Homo sapiens, UniProt Q5S007, G2019S)",100%
"ALK tyrosine kinase receptor (ALK, Homo sapiens, UniProt Q9UM73)",100%
